Assay results of several laboratories.
Lines come from different studies, so protocols differ. ± gives the spread as reported.
CYP2D6: Cytochrome P450 2D6 (CYP2D6, Homo sapiens, UniProt P10635)
Chain of UniProt P10635 (whole entry, looked up): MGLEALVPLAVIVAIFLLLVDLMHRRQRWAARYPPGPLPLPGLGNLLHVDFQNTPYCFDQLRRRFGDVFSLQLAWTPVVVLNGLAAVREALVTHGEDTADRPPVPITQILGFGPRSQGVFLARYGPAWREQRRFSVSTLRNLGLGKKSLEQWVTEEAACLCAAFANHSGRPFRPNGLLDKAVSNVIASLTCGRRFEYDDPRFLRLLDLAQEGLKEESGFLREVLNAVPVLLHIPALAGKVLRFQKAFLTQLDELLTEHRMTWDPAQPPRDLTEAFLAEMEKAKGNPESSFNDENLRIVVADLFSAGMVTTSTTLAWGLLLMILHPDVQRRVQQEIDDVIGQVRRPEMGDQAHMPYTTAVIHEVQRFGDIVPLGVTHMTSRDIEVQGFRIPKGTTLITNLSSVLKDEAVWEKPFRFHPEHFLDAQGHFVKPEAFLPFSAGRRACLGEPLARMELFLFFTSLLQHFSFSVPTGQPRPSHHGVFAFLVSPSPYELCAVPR
SLCO1B1: Solute carrier organic anion transporter family member 1B1 (SLCO1B1, Homo sapiens, UniProt Q9Y6L6)
Chain of UniProt Q9Y6L6 (whole entry, looked up): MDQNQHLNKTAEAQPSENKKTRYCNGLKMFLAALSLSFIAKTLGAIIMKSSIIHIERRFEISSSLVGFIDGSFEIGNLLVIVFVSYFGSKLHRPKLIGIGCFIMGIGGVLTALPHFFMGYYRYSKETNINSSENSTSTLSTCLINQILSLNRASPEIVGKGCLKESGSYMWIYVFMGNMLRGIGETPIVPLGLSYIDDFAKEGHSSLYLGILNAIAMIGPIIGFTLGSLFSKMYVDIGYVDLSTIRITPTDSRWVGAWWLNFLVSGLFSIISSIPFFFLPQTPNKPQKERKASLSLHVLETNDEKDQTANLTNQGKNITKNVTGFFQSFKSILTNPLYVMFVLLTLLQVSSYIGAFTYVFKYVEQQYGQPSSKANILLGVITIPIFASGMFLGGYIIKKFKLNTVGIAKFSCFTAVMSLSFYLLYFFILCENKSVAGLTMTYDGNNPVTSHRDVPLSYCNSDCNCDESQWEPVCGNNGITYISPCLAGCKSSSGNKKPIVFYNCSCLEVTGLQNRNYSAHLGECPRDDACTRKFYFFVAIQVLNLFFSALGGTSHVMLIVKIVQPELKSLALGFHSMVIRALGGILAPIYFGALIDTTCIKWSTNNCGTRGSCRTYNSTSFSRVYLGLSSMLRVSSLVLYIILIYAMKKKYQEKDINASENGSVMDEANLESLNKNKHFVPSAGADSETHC
Chain of UniProt P58406 (whole entry, looked up): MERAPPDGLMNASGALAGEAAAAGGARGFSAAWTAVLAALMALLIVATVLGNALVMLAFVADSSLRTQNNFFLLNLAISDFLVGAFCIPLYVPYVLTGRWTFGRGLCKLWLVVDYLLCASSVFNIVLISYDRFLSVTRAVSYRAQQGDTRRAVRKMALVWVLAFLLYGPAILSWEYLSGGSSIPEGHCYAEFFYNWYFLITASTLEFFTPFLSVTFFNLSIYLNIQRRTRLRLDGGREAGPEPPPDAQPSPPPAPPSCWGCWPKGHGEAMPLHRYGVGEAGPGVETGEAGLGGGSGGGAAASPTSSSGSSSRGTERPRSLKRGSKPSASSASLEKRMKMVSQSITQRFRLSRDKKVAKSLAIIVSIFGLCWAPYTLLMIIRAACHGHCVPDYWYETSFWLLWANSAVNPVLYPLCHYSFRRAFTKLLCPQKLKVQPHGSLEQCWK
Chain of UniProt P61073 (whole entry, looked up): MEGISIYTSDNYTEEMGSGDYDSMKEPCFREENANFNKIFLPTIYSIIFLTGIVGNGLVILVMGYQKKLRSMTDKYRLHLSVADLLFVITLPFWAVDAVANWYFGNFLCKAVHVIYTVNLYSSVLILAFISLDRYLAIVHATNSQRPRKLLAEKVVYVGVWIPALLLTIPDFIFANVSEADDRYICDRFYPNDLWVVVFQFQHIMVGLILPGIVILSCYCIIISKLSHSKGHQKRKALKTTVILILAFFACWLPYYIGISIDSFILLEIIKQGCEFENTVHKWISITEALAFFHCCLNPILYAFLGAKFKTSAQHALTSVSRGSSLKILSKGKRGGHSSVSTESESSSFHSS
Chain of UniProt P08684 (whole entry, looked up): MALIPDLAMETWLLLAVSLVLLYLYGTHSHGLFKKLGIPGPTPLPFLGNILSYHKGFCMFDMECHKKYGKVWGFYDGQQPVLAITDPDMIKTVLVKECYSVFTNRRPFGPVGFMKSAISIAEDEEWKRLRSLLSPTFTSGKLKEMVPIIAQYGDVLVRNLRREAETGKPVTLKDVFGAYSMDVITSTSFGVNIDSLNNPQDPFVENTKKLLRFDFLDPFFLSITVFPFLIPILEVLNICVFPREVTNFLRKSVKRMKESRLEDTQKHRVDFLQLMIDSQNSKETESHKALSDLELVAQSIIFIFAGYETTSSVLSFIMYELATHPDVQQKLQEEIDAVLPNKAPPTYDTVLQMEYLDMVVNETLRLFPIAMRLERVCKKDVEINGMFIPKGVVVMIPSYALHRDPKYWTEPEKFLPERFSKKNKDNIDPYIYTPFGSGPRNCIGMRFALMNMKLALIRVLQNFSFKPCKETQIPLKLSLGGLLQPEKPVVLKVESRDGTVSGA
Chain of UniProt P20813 (whole entry, looked up): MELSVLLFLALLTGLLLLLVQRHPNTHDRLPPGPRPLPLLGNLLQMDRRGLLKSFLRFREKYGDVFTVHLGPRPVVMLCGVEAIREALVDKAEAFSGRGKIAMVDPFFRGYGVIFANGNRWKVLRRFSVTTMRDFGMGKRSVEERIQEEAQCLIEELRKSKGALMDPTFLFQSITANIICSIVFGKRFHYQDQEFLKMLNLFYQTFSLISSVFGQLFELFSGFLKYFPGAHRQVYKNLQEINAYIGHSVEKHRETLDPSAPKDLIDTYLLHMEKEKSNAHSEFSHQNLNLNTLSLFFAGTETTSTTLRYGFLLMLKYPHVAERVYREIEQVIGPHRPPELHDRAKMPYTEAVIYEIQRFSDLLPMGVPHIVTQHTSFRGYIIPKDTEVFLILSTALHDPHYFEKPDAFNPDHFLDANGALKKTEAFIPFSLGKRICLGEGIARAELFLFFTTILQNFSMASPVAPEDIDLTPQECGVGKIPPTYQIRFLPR
Chain of UniProt Q92887 (whole entry, looked up): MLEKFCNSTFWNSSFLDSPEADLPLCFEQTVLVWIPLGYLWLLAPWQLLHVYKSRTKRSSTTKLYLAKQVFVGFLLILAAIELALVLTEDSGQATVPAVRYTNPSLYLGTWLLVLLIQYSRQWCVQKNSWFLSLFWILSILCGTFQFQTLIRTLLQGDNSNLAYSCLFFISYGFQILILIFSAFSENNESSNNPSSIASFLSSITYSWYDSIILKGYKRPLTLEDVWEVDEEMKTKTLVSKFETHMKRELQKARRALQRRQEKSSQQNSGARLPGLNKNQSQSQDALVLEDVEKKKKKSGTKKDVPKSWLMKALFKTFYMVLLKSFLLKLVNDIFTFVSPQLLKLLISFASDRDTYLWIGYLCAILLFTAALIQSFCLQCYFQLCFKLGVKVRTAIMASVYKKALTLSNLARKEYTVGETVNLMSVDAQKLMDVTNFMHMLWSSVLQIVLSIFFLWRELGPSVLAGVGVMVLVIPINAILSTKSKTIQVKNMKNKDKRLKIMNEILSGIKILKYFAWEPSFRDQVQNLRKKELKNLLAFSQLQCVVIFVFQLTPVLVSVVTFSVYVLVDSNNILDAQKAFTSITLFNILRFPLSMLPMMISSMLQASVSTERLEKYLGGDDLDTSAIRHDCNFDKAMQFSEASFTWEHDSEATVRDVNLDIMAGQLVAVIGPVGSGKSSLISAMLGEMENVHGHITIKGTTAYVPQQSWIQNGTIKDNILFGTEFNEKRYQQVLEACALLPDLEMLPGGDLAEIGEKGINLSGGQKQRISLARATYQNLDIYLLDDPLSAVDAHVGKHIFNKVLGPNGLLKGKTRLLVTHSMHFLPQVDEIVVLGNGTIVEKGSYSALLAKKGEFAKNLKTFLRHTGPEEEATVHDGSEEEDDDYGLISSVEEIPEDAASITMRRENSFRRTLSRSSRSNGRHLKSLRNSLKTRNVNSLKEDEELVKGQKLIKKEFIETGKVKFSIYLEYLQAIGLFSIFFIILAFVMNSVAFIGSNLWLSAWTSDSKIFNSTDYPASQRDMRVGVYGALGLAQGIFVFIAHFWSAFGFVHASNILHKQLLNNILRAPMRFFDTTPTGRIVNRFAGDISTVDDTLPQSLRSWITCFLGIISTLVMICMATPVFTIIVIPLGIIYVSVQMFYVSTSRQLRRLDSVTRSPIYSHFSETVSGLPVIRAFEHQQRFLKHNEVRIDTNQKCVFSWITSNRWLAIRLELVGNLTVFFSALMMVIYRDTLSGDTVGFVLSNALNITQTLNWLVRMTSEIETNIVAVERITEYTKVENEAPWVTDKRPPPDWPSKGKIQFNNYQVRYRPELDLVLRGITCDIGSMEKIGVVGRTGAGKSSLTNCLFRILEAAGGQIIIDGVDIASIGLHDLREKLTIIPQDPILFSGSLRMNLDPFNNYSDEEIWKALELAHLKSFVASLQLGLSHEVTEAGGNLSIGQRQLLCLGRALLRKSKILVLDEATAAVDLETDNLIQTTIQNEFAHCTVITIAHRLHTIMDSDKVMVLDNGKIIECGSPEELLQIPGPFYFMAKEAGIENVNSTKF

SMILES	target or system	assay	system	conditions	scale	endpoint	value
CCCC[C@H](NC(=O)CNC(=O)CNC(=O)c1ccc(NN)nc1)C(=O)N[C@H]1CC(=O)NCCCC[C@@H](C(N)=O)NC(=O)[C@H](Cc2c[nH]c3ccccc23)NC(=O)[C@H](CCCNC(=N)N)NC(=O)[C@@H](Cc2ccccc2)NC(=O)[C@H](Cc2c[nH]cn2)NC1=O [technetium-99m labelled]			C57 mice bearing B16/F1 melanoma	dose not given, 2 h post-injection		activity cleared from body	~91 % injected dose
N=C(N)NCCC[C@@H]1NC(=O)[C@H](CCCCNC(=O)CCOCCOCCOCCOCCNC(=O)CC[C@H](NC(=O)CCOCCOCCOCCOCCNC(=O)CC[C@H](NC(=O)CN2CCN(CC(=O)O)CCN(CC(=O)O)CCN(CC(=O)O)CC2)C(=O)NCCOCCOCCOCCOCCC(=O)N[C@@H](CCC(=O)NCCOCCOCCOCCOCCC(=O)NCCCC[C@@H]2NC(=O)[C@@H](Cc3ccccc3)NC(=O)[C@H](CC(=O)O)NC(=O)CNC(=O)[C@H](CCCNC(=N)N)NC2=O)C(=O)NCCOCCOCCOCCOCCC(=O)NCCCC[C@@H]2NC(=O)[C@@H](Cc3ccccc3)NC(=O)[C@H](CC(=O)O)NC(=O)CNC(=O)[C@H](CCCNC(=N)N)NC2=O)C(=O)NCCOCCOCCOCCOCCC(=O)NCCCC[C@@H]2NC(=O)[C@@H](Cc3ccccc3)NC(=O)[C@H](CC(=O)O)NC(=O)CNC(=O)[C@H](CCCNC(=N)N)NC2=O)NC(=O)[C@@H](Cc2ccccc2)NC(=O)[C@H](CC(=O)O)NC(=O)CNC1=O [indium-111 labelled]			athymic nude mouse, female, U-87 MG xenograft, urine	intravenous, dose not given		excreted dose	> 75%
COC(=O)C1=CO[C@@H](OC(C)=O)[C@@H]2C(Cn3cc(CN(C)Cc4ccccc4)nn3)=CC[C@H]12	SK-N-SH	neuroprotection, MTT		0.15 µM, 24 h, together with: 250 µM H2O2		viability	50.8 ± 0.6%
C=C(C)[C@@H]1CCC(CO)=C[C@H]1c1c(O)cc(CCCCC)cc1O	CYP3A4/CYP2C19		human	dose not given, single dose, together with: rifampicin steady state		decrease in AUC(0-tau)	63%
CNC(=O)Oc1cc(C)c([S+](C)[O-])c(C)c1 (stereo not shown)	CYP2D6	inhibitor	human liver microsomes	10 µM, pH 7.4, together with: dextromethorphan		inhibition	< 0%
C[C@@H]1CCCN1CCc1cc2cc(C(=O)c3ccc([18F])cc3)ccc2o1	Histamine H3 receptor (Hrh3, Mus musculus, UniProt P58406)	PET	mouse, brain	dose not given, 90 min, baseline		brain radioactivity concentration	~2.3 SUV
CN1C(=O)[C@@H](Cc2ccc(O)cc2)NC(=O)CNC(=O)[C@H](Cc2ccc3ccccc3c2)NC(=O)[C@H](CCCNC(=N)N)NC(=O)[C@H]1CCCNC(=O)c1ccc(CNC(=O)CN2CCN(CC(=O)O)CCN(CC(=O)O)CCN(CC(=O)O)CC2)cc1 [gallium-68 labelled]	C-X-C chemokine receptor type 4 (CXCR4, Homo sapiens, UniProt P61073)	PET	human, nodal lesions			SUVmean	5.05
Cc1ccc2c(n1)c(-c1cccc(S(C)(=O)=O)c1)c(C)n2C/C(F)=C/CN	LOXL2 (human)		healthy male subjects, plasma	oral, 100 mg single dose, unit not given	reference: Cmax over LOXL2 IC50	Cmax over IC50	> 10
O=C(O)CC[C@@H](NC(=O)CNC(=O)[C@@H](Cc1ccccc1)NC(=O)[C@@H](Cc1ccccc1)NC(=O)Cc1ccc2ccccc2c1)C(=O)N[C@H](Cc1ccc(OP(=O)(O)O)cc1)C(=O)O	proteinase K	proteolytic stability		200 µM, 32 h, together with: proteinase K 3 U/mL		remaining compound	> 93%
CNC(=O)Oc1cc(C)c(S(C)(=O)=O)c(C)c1	CYP2D6	inhibitor	human liver microsomes	2 µM, pH 7.4, together with: dextromethorphan		inhibition	< 0%
C=CC(=O)Nc1cc(Nc2nccc(-c3cn(C)c4ccccc34)n2)c(OCC(F)(F)F)nc1N(C)CCN(C)C	Cytochrome P450 3A4 (CYP3A4, Homo sapiens, UniProt P08684)	enzyme activity, inhibitor	human, liver microsomes	0.33 µM, midazolam probe		activity vs control	77.6%
[64Cu+2].c1ccc(CNCc2ccc(CN3CCCNCCNCCCNCC3)cc2)nc1	CXCR4		NOD/SCID mouse, U87 and U87-stb-CXCR4 xenografts, heart	iv, 90 min, no blocking dose, ex vivo		tissue uptake	1.08 ± 0.38 %ID/g
Cc1cccc(C)c1OCC(=O)N[C@@H](Cc1ccccc1)[C@H](C[C@H](Cc1ccccc1)NC(=O)[C@H](C(C)C)N1CCCNC1=O)OC(=O)[C@H](CC(C)C)NC(=O)[C@@H](N)Cc1cnc[nH]1	ATP-binding cassette sub-family C member 2 (ABCC2, Homo sapiens, UniProt Q92887)		MDCK-MRP2	concentration not given	reference: compound over lopinavir	A-B permeability ratio	~4.1 fold
CC[C@H](C)[C@H](NC(=O)[C@H](CC(N)=O)NC(=O)[C@H](Cc1ccccc1)NC(=O)CNC(=O)[C@H](CC(C)C)NC(=O)[C@H](Cc1ccccc1)NC(=O)[C@H](Cc1ccccc1)NC(=O)Cc1ccc2ccccc2c1)C(=O)O	proteinase K	substrate	hydrogel nanofibrils	622 µM, 24 h, pH 6.4, 37 °C, together with: proteinase K 3.2 U/mL		remaining compound	70.7 ± 2.4%
COC(=O)C1=CO[C@@H](O)[C@@H]2C(Cn3cc(C4(O)CCCCC4)nn3)=CC[C@H]12	SK-N-SH	neuroprotection, MTT		0.15 µM, 24 h, together with: 250 µM H2O2		viability	77.3%
C=C(C)[C@@H]1CCC(C(=O)O)=C[C@H]1c1c(O)cc(CCCCC)cc1O	CYP3A4/CYP2C19		human	dose not given, single dose, together with: rifampicin 600 mg once daily		half-life	16 h
C[C@]12CC[C@H](O)CC1CCC1C2[C@H](O)C(=O)[C@]2(C)[C@@H](c3ccc(=O)oc3)CC[C@]12O (stereo partly shown)	mixed recombinant human SULT isoforms	sulfation, substrate		pH 7.4		CLint	15.7 µL/min/mg
Cc1ccc2nc(C)c(C(=O)NCc3ccc(C(F)(F)F)cc3)n2c1	Cytochrome P450 2B6 (CYP2B6, Homo sapiens, UniProt P20813)	inhibitor				IC50	> 20 µM
O=C1Cc2cc(CCN3CCN(C4=NS(=O)(=O)c5ccccc54)CC3)c(Cl)cc2N1	CYP2D6	inhibitor	human liver microsomes	10 µM, pH 7.4, together with: dextromethorphan		inhibition	< 0%
CC(CCC(=O)NCC(=O)O)C1CCC2C3CCC4CC(OC5OC(C(=O)O)C(O)C(O)C5O)CCC4(C)C3CC(O)C12C (stereo not shown)	SLCO1B1	substrate	HEK293 transfected	1 µM, 2 min	reference: wild-type HEK293	uptake ratio	78 ± 6.9
CNC(=O)CC[C@@H](NC(=O)[C@@H](Cc1ccc(OP(=O)(O)O)cc1)NC(=O)[C@@H](Cc1ccccc1)NC(=O)[C@@H](Cc1ccccc1)NC(=O)Cc1ccc2ccccc2c1)C(=O)NC	alkaline phosphatase	substrate	HepG2	200 µM, 24 h		dephosphorylated fraction	47.6%
CCCS(=O)(=O)c1ccc2[nH]c(NC(=O)OC)nc2c1	CYP2D6	inhibitor	human liver microsomes	10 µM, pH 7.4, together with: dextromethorphan		inhibition	< 0%
CSc1nc2[nH]nc([N+](=O)[O-])c(=O)n2n1	SLCO1B1	transport activity, refers to: OATP1B1		100 µM		inhibition	no inhibition
CSCC[C@H](NC(=O)[C@H](CC(C)C)NC(=O)[C@H](Cc1c[nH]cn1)NC(=O)CNC(=O)[C@@H](NC(=O)[C@H](C)NC(=O)[C@H](Cc1c[nH]c2ccccc12)NC(=O)[C@H](CCC(N)=O)NC(=O)CCCCCNC(=O)CNC(=O)CNC(=O)CNC(=O)CSC(C)=O)C(C)C)C(N)=O [technetium-99m labelled]			Swiss mouse, pancreas	intravenous, 18.5 MBq, 5 min		tissue uptake	6.58 ± 1.67 %ID/g
CC(CCC(=O)NCC(=O)O)C1CCC2C3C(O)CC4CC(OC5OC(C(=O)O)C(O)C(O)C5O)CCC4(C)C3CCC12C (stereo not shown)	SLCO1B1	substrate			reference: OATP1B1 over OATP1B3 or OATP2B1	uptake ratio	≥ 6
